# Measured values collected from several papers.
# ± gives the spread as reported. Ends that are not written are not given here. * marks the point of attachment.
# Cell line: MDA-MB-231
Substance,test,conditions,how to read,endpoint,value
Fc1cnc(NCc2ccc(CNc3ncc(F)cn3)cc2)nc1,cell invasion (Matrigel),"10 nM, together with: CXCL12 200 ng/mL",,inhibition,> 75%
COc1ccc(-c2c3n(c4c(=O)[nH]nc(O)c24)CCn2cccc2-3)cc1,"cell growth or viability, MTT",48 h,,IC50,61 µM
COc1cccc2c1C(=O)c1c(O)c3c(c(O)c1C2=O)C[C@@](O)(C(=O)CO)C[C@@H]3O[C@H]1C[C@H](N)[C@H](O)[C@H](C)O1,cell viability,,baseline: 3D mono-culture over tissue chip,IC50 ratio,~70 fold
CC(=O)N1N=C(c2ccc(NC(=O)CN3CCN(c4ccc(Cl)cc4)CC3)cc2)CC1c1ccc(C)cc1 (centres unmarked),"cell growth or viability, MTT",,,IC50,56.1 µM
Cc1cccc(-c2c3n(c4c(=O)[nH]nc(O)c24)CCn2cccc2-3)c1,"cell growth or viability, MTT",48 h,,IC50,65.9 µM
C[C@]12CCc3c(ccc4ccc(O)cc34)[C@@H]1C[C@@H](O)C2,cell growth,,,GI50,~0.8 µM
COC(=O)c1c(-c2ccc(F)cc2)c2n(c1C(=O)OC)CCn1cccc1-2,"cell growth or viability, MTT",48 h,,IC50,84.2 µM
CN(Cc1cccc(CN(C)c2ccc(F)cc2)n1)c1ccc(F)cc1,Matrigel invasion,"100 nM, 22 h, together with: CXCL12 200 ng/mL",,invasion inhibition,< 50%
c1cc(CN2CCCNCCNCCCNCC2)ccc1CN1CCCNCCNCCCNCC1,,"0.1 µM, 22 h",,inhibition,55%
C#C[C@@]1(O)[C@@H](CO)O[C@@H](n2cc(I)c3c(N)ncnc32)[C@@H]1O,SRB,48 h,,GI50,0.186 ± 0.02 µM
Fc1nccc(NCc2ccc(CNc3ccnc(F)n3)cc2)n1,cell invasion (Matrigel),"10 nM, together with: CXCL12 200 ng/mL",,inhibition,> 60%
COC(=O)c1c(-c2cccc(C)c2)c2n(c1C(=O)OC)CCn1cccc1-2,"cell growth or viability, MTT",48 h,,IC50,88.1 µM
COc1ccc(N2CCN(CC(=O)Nc3ccc(C(=O)C=Cc4ccc(C)cc4)cc3)CC2)cc1,"cell growth or viability, MTT",,,IC50,77.2 µM
COc1cccc2c1C(=O)c1c(O)c3c(c(O)c1C2=O)C[C@@](O)(C(=O)CO)C[C@@H]3O[C@H]1C[C@H](N)[C@H](O)[C@H](C)O1,fluorescence microscopy,"7.5 µM, together with: endocytosis inhibition (low temperature or sodium azide)",,cellular uptake,decreased
Dnp-KEQNPIYWARYADWLFTTPLLLLELALLVDADEGTG (DNP-labelled; Dnp = O=[N+]([O-])c1ccc(*)c([N+](=O)[O-])c1),ADCC,"0.1 µM, 4 h, pH 7.4, effector:target 50:1, together with: anti-DNP antibody, PBMC",,cell lysis,20%
CSc1nccc(NCc2ccc(CNc3ncc(F)cn3)cc2)n1,cell invasion (Matrigel),"10 nM, together with: CXCL12 200 ng/mL",,inhibition,> 60%
COC(=O)c1c(-c2cccc(O)c2)c2n(c1C(=O)OC)CCn1cccc1-2,"cell growth or viability, MTT",48 h,,IC50,87.4 µM
COc1ccc2oc(-c3ccc4nc(N)oc4c3)c/c(=N\c3ccccc3NC(=O)CCN)c2c1,"cell growth or viability, CCK-8",1 µM,,inhibition,70.7%
COC(=O)c1c(-c2cccc(Cl)c2)c2n(c1C(=O)OC)CCn1cccc1-2,"cell growth or viability, MTT",48 h,,IC50,75.3 µM
COc1cccc2c1C(=O)c1c(O)c3c(c(O)c1C2=O)C[C@@](O)(C(=O)CO)C[C@@H]3O[C@H]1C[C@H](N)[C@H](O)[C@H](C)O1,"cell growth or viability, MTT",48 h,,EC50,3.28 µg/mL

# A few entries again:
Substance,test,conditions,how to read,endpoint,value
COC(=O)c1c(-c2cccc(Cl)c2)c2n(c1C(=O)OC)CCn1cccc1-2,"cell growth or viability, MTT",48 h,,IC50,75.3 µM
